Experimental data gathered from unrelated publications.
A part holds a random share of what one study measured. Positions count from the first letter of the parent shown.
Chain of UniProt P51668 (whole entry, looked up): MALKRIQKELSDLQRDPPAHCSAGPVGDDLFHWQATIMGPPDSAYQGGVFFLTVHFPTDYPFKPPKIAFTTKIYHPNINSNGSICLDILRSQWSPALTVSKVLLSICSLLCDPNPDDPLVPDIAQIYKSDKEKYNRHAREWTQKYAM
Chain of UniProt Q9Y385 (whole entry, looked up): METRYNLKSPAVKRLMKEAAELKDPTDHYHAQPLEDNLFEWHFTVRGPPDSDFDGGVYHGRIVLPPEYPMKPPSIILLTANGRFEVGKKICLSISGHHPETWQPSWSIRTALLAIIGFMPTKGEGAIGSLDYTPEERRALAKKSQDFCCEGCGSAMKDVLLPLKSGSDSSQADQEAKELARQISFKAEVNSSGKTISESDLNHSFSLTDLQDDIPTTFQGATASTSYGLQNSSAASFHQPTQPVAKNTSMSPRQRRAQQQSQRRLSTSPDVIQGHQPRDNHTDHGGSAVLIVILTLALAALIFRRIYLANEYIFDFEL
Chain of UniProt Q9H832 (whole entry, looked up): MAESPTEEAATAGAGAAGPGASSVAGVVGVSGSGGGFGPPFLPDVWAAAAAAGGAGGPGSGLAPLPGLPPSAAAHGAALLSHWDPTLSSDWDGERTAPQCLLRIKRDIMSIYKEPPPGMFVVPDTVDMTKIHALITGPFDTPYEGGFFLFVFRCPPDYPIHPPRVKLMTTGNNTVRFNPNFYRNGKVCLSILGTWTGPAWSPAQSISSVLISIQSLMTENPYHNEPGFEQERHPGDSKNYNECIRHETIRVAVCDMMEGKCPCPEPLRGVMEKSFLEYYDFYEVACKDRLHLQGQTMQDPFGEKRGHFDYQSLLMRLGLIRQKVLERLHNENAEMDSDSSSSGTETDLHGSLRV
Chain of UniProt Q9C0C9 (whole entry, looked up): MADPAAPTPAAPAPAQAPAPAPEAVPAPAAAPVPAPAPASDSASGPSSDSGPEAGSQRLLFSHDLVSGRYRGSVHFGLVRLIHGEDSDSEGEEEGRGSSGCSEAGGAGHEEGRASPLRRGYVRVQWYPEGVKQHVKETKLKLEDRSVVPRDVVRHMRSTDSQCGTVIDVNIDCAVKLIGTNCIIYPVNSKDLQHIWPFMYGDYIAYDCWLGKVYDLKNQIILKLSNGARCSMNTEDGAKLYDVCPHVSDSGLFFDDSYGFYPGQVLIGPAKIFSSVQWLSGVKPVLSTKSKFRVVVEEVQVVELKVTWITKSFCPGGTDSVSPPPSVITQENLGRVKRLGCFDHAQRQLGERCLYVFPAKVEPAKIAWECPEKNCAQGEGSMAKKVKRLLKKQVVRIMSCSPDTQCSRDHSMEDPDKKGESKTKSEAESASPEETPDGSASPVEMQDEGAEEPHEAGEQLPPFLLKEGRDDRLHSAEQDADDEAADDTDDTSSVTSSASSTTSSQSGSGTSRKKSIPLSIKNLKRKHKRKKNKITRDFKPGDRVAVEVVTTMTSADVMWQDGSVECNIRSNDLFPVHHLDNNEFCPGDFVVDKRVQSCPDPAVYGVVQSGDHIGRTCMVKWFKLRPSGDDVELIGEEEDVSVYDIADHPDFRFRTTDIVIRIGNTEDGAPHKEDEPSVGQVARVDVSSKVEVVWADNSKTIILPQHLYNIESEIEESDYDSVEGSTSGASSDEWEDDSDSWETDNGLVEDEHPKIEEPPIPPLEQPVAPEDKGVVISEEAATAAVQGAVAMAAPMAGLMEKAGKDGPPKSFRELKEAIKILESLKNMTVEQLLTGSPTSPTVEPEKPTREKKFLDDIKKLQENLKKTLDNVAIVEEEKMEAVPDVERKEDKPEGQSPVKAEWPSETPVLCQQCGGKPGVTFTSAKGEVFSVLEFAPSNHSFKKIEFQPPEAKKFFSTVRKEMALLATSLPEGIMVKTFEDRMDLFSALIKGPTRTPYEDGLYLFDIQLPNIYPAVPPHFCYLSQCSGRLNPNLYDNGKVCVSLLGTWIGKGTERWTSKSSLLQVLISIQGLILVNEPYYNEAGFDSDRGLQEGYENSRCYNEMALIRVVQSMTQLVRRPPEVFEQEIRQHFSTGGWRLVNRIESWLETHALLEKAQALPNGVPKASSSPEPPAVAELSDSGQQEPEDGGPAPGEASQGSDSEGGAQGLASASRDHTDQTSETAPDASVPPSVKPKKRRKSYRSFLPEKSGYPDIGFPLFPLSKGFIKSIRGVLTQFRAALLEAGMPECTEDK
Chain of UniProt Q712K3 (whole entry, looked up): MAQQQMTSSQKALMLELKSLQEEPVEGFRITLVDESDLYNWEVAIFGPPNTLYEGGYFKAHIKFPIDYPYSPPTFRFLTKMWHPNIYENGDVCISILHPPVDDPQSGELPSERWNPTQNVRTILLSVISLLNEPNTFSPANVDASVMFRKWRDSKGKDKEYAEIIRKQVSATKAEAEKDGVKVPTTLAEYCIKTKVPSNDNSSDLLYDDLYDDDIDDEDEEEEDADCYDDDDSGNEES
Chain of UniProt Q8N2K1 (whole entry, looked up): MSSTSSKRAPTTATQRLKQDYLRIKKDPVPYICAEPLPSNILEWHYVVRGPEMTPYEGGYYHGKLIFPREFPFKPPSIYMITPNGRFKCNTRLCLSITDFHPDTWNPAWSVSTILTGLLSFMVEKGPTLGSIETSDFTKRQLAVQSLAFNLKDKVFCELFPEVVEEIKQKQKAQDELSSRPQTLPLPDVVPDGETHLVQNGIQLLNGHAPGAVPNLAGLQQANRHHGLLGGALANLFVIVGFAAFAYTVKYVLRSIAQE

Series 1 — technique: competition protein-binding microarray; molecule type: double-stranded DNA, one strand shown; sample: in vitro; concentration: 2 µM; added: Cbf1 competitor, 0.05 µM; direction: higher = stronger binding; shared flanks, not repeated: … GTCTTGATTCGCTTGACGCTGCTG
Target: Phosphate system positive regulatory protein PHO4, full length, GST-tagged (PHO4, Saccharomyces cerevisiae, UniProt P07270, residues 1-312)
Setting: whole 60-bp probe, lowest competitor level
Target sequence (chain): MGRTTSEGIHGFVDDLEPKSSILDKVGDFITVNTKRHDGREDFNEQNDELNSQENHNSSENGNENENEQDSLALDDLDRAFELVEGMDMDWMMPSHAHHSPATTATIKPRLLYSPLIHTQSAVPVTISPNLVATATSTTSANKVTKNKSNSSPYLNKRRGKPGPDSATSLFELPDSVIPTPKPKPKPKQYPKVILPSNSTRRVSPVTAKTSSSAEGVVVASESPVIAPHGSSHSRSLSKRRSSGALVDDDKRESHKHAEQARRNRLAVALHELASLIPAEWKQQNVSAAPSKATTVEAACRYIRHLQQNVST
Oligonucleotide	fluorescence intensity
CACTGTTGGCACCTCCACGTGTTGAATTACCAGGGC	15900 a.u.
CTTTCCCGATCTTGTAGAGTGGGTGTAGCACATTTG	4570 a.u.
TCACCAGACAAATATCACCTGGAACCACATCTTTTG	3610 a.u.
GAGCGATGCCAGCATCACATGCAGGTTTTCAAGTAT	8490 a.u.
TGGGAATCCGCTTGGCGCGTGATGGAGCCAATGAAC	7980 a.u.
GAGCTCTTTGGCGGCAACGTGATGGGCGAGTTGGTT	10400 a.u.
CATACCCAACCTTGTCACAATACTTAAGATATTTGT	4030 a.u.
TGCGCAACAACTTGGTTCGTGGGTGTATGTCTAGAA	7290 a.u.
CTAACGAAGGTTTGTTGAGTGGGTGACAAGCCAAGT	4080 a.u.
TTTCTGGTGTCTATGAAGGTGTCTCAACAATCGAAC	3430 a.u.
CTTTCCCGATCTTGAGGGGTGGGTGTAGCACATTTG	5200 a.u.

Series 2 — technique: yeast two-hybrid; sample: yeast; setting: mostly zero background; reference: not given; direction: higher = stronger interaction
Molecule: ALDRLEKLLRCSRCTNILREPVCLGGCEHIFCSNCVSDCIGTGCPVCYTPAWIQDLKI (BARD1 RING domain (UniProt Q99728))
target	lacZ reporter activity
UBE2I UBC core domain (UniProt P63279)	0
UBE2R2 UBC core domain (UniProt Q712K3)	0
UBE2J1 UBC core domain (UniProt Q9Y385)	0
UBE2Z UBC core domain (UniProt Q9H832)	0
UBE2D1 UBC core domain (UniProt P51668)	0
UBE2J2 UBC core domain (UniProt Q8N2K1)	0
UBE2O UBC core domain (UniProt Q9C0C9)	0

Series 3 — technique: RNA Bind-n-Seq; molecule type: RNA; sample: in vitro; concentration: not given; reference: input RNA pool; direction: higher = stronger binding
Target: RING finger protein unkempt homolog, zinc fingers 1-6, GST-SBP tag (UNK, Homo sapiens, UniProt Q9C0B0, residues 30-357)
Chain of UniProt Q9C0B0 (30-357, looked up): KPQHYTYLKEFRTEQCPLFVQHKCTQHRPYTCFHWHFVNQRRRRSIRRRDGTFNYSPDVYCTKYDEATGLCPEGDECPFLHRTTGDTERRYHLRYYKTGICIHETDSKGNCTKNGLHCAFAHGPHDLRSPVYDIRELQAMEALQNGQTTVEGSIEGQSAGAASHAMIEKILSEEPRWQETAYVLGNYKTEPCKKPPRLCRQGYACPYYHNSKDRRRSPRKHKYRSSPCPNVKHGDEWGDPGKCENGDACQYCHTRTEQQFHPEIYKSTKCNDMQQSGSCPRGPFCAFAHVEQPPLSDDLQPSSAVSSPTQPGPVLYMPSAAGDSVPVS
Setting: RNA with constant flanks, human and mouse sites, ends assumed
Shared flanks, not repeated: GGGAGUUCUACAGUCCGACGAUC … CAACAGAGGAUUGAGCAUCA
Oligonucleotide	bound/input enrichment [ratio]
CCAAGUCGCUGGGACUUAACACCUCCCCCCCCCCCCAGCAGGGAGUUGGCAAGAAUUUGGCUCCCGUAUUCUGCUGCAAUCCUCUACUGUCCCGGUGUGCCAGCCUUCCACCAUGACUGA	0.661
AAACAGAAGGUUUCGGAGUCCCUGAUGUUCUCUUUUCCUCCUGCUUUUAUCCCCUCUGCCUUCCUCCACAUGUUUCUCCUCAGGGCCACGUGGUCUUUGAUGCCAGCGGCUCCCGGAUGG	0.137
AUUAUGUCUUAUAAUCCUGCAUCACUUCUAUCCUAUCCAGUCAUAUCUAAUGUAGAAAAUUAGUUUCCAGUGAAAGUAAUAUGUAGUGCUUUUAUGAUAUUUGUGUGCAAUAUCCCCUCU	5.03
GUUGCUGAGUAUGACGCCUACUUUGAGGAGGUAAAACAGGAGAUAAAUCAGAGGCUGACACUGAGUGACUUCCUCAUCAAGCCCAUUCAGAGAAUAACAAAAUACCAGUUGCUCCUCAAG	0.217
GCGUUAGGGACUCCGAAACAGCAGCUCCAUACAAUGGCUCAGAAAACCAUCUUUAGUACUGGCACACCAGUGGCUGCAGCUACAGUAGCACCUAUUCUGGCAACCAACACGCUUCCUUCA	0.287

Series 4 — technique: DHFR PCA, deep sequencing; sample: yeast; added: (+)-ABA 2500 µM; reference: wild-type fitted maximum; direction: higher = stronger binding
Target: ABI1, truncated, D143A, DHFR fusion (Arabidopsis thaliana)
Setting: methotrexate growth selection, single substitutions
Starting sequence: PYL1, truncated, DHFR fusion (Arabidopsis thaliana); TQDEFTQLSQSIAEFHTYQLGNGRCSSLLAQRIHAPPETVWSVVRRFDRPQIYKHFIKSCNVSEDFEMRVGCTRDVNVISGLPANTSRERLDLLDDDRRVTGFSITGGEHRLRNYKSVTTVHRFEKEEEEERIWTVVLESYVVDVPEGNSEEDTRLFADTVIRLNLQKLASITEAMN
Substitution	relative binding score [%]
T119H	57.4
V43Y	103
Y53Q	65.3
G148E	94.2
R69K	93.8
E4V	99.2
T39C	100
P50H	-1.54
K168R	96.3
T86S	96.1
Q10G	103
V161L	98.4

Series 5 — technique: RNA Bind-n-Seq; molecule type: RNA; sample: in vitro; concentration: 365 nM; reference: no-protein control; direction: higher = stronger binding
Target: RNA binding protein fox-1 homolog 2, RRM domain, GST-SBP tag (RBFOX2, Homo sapiens, UniProt O43251-10, residues 100-194)
Setting: natural RNA segment, single round, ends assumed
Shared flanks, not repeated: GGGAGUUCUACAGUCCGACGAUC … UGGAAUUCUCGGGUGCCAA
Target sequence (chain): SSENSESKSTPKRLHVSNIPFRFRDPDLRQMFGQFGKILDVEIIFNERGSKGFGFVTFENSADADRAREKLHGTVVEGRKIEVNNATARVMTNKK
Oligonucleotide	RBNS enrichment (R)
UUUACCCCUUUCCCUUAAUUCCUAUUCUGAUGACACUUUGGACAUGAAUUCAAGGGGCAGAUGAAUUUUUGGCAUUGUGUUUUUUCUUACUCAAAAUCUGUUUAUUGGGU	0.558
ACGCACGCUUUUCAUAAUUAACUGGUGCUUUGAAACCUUUCUUAUGGAAGAAAAAUCUCAACCAAAGUUAUGCUCUUCCUGACAAGCUGACCCUUGAGUUAAUUUUAGCA	27.8
UUGAUGAAAAGCCUAGAAAUUAGUUCCUCUUAAAGUGCAAUAUUACUUAACCUCAGAAUCGGGCCAGUUCUGUAGAUCCUCAAGAGAAGCUUCAGUGACUGUCCCUUUGA	0.565
UGGGUGACAGAUUGGUCAUUUAUUUAAAUAAAGUUAAUACAGAUUAAAUUUGUUUCAAGAGCUAUUGAAUUUUCAAAUUUUCAGUGUAUUUAUAACUUUUAAGAACAUGA	0.611
GGGGAAAGGGGUCGGCUGACCAUGCUCAUCUGCUGGUCCGUGGGACGGUGCCCAAGCCAGAGGCUGGGUUCAUUUGUGUAACGACAAUAAACGGUACUUGUCAUUUCGGG	0.407
CCAGUCCAGGACUUUGGAACCCUGGUCUCAUUCACCCCAAAUAUACUUCUUGCUGAUCAUGCGUUGUGGGGGUGUGGGGGGACCCAUGCAGAGGAGGUUCUCUUCAUAAG	0.221
CAUCCAGCAGUCAGAUGUGUCCUCGGUCCUCUGUGGCCCUCCGUUGCCGCCUGUGUGCUUUGCCCGUGUGCUCCUGCUGUCCCUCUGCCUGGGAUGGCCGCCCUGCUCUG	3.93
UUUUCUUCUUUAAAAUUGGGGACCUAUAACAUCAUCGCUGUUGCGGAAUCCACUUAGGCAUGUGUCCCCUGAUGGAUGAAUACAUGGGAAUGGUGGAUACUGUCUUCUGA	0.499
UUGUCUCCCCGCUGAAAAGAACAGGAUUCAAGUCCAGAGUUUUCAUCUUCAGCCUGUGAUCUGUCCAGGGACCCUUGGGAUCUGGGGCUUCCUGGCCUGGCCAGAGCUGG	0.208
GGGUCAGAGGGAGGCCGGCUGCUUCCUGCCCCCACCCUUUCCCCGGGCCUGCUGUGCUGCUUUUGUGCCAAGGUUAGCCAGUCCCCCCUGUUGUGUUCCAUGUGCUUUCA	0.319
GCAUUUUAUGUACAAAACAGAAGUCAAUGCAACAGUAUGUAUGUGUGCCUGUGUGUGUAUAAAAAUAACCAUUGAAGCUAACUUGCUAAUGUACUUAGGCAAGCCACUUC	1.22
UCCUUCUGGAACAGUGUGAGACAAUUAAACUUCAUUCCCUGUGGGUUAGCACUUAAUAUGUAGAAGCUUGGGCUUGAAGGUGAUGUCCACCUUAAUCAGCAUCACUUGCA	12.1

Series 6 — technique: RNA Bind-n-Seq; molecule type: RNA; sample: in vitro; concentration: 200 nM; setting: whole 134-nt RNA, ends assumed; added: 150 mM LiCl; reference: input library; direction: higher = stronger binding; library: 7-deaza-guanosine replaces G
Target: Ras GTPase-activating protein-binding protein 1, full length (G3BP1, Homo sapiens, UniProt Q13283)
Chain of UniProt Q13283 (whole entry, looked up): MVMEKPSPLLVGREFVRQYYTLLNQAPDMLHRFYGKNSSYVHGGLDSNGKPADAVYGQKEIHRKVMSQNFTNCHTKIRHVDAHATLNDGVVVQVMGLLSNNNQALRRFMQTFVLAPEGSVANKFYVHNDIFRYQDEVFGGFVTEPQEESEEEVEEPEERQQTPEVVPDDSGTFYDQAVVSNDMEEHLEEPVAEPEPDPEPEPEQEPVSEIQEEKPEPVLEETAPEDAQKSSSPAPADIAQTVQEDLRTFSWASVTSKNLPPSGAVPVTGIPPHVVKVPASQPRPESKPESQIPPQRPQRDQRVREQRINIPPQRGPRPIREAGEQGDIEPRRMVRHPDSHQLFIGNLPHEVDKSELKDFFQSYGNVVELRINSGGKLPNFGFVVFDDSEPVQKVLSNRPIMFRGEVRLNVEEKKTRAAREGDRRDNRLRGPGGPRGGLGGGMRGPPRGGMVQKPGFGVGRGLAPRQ
Shared flanks, not repeated: GGGAGUUCUACAGUCCGACGAUC … UGGAAUUCUCGGGUGUCAAGG
Oligonucleotide	log2 enrichment
UGCGUGCUUGUGUCCUGGAGCUGGAAGAGCGGCUGAGCACGCAGGAGGGCUUGGUGCAAGAGCUUCAGAAAAAACAGGUGGAAUUGCAGG	0.667
CCUCAAGUCCUGUGCUACACAUCGUAUGUACCGAAUCGGGCGGGCGGGCGGGGAAAGUAUUAUGUUACGCCGUUCGGAUCUGCACUUCCA	-1.48
AGUCCUGUGCUACACAUCGUAUGUACCGAAUCGGGGUUUUGGGGUUUUGGUUUUGGGAAAGUAUUAUGUUACGCCGUUCGGAUCUGCACU	-1.43
CCUCAAGUCCUGUGCUACACAUCGUAUGUACCGAAUCGGGGAGGGGAGGGAGGAAAGUAUUAUGUUACGCCGUUCGGAUCUGCACUUCCA	0.0452
UCCUCAAGUCCUGUGCUACACAUCGUAUGUACCGAAUCGGGGCGGCGGGCGGAAAGUAUUAUGUUACGCCGUUCGGAUCUGCACUUCCAG	0.248
CUCAAGUCCUGUGCUACACAUCGUAUGUACCGAAUCGGGGAGGGAGGGGAGGGGAAAGUAUUAUGUUACGCCGUUCGGAUCUGCACUUCC	-0.176
GUCCUGUGCUACACAUCGUAUGUACCGAAUCGGUUUUUUGGUUUUUUGGGUUUUUUGGGAAAGUAUUAUGUUACGCCGUUCGGAUCUGCA	-0.827
